Measured values of several laboratories.
A part holds a random share of what one study measured. Substitutions count along the parent as printed.

Series 1
Target: CREB3L4, bZIP domain (human)
Method: DHFR protein complementation
Medium: yeast
Setting: single substitutions, most at no-binding floor
Relative to: wild-type JUN-FOS pair
Reading: higher = stronger binding
Starting sequence: JUN, bZIP domain (human); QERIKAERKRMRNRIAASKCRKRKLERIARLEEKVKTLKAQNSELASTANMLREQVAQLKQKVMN; partner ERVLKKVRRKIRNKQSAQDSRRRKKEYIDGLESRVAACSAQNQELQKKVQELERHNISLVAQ
The binding fitness of `N42S` is reported as -1.52 natural log.
With `L45W` the binding fitness was -1.52 natural log.
`Q58P` gave a binding fitness of -1.53 natural log.
The binding fitness of `E44S` is reported as -1.17 natural log.
`S47K` has a binding fitness of -1.52 natural log.
For `M51I`, the binding fitness was -1.13 natural log.
With `V35N` the binding fitness was -1.48 natural log.
With `A46E` the binding fitness was -1.24 natural log.
With `E54Y` the binding fitness was -1.55 natural log.
For `Q41I`, the binding fitness was -1.34 natural log.

Series 2
Target: CCNB3, cyclin fold, Cln2 fusion (human)
Method: yeast growth competition, sequencing
Medium: yeast
Setting: strong parent motif
Relative to: not given
Reading: higher = stronger binding
Starting sequence: BRCA2 docking peptide (human); PSIKRNLLNEFDR
For `PSIKRNLLNVFDR [E10V]`, “normalised enrichment score” read 0.274.
Under “normalised enrichment score”, `PSWKRNLLNEFDR [I3W]` is recorded as 0.669.
`PSIKRNLLNEFDC [R13C]`: “normalised enrichment score” 0.831.
Under “normalised enrichment score”, `PSKKRNLLNEFDR [I3K]` is recorded as 0.463.
`PSIKRLLLNEFDR [N6L]`: “normalised enrichment score” -0.224.
For `PSIKRNLLLEFDR [N9L]`, “normalised enrichment score” read 2.02.
For `PSIKRNLLNEFFR [D12F]`, “normalised enrichment score” read 0.554.
`PSSKRNLLNEFDR [I3S]` — result for “normalised enrichment score”: 0.571.
`PMIKRNLLNEFDR [S2M]`: “normalised enrichment score” 1.18.
`PSIKRNPLNEFDR [L7P]`: “normalised enrichment score” -0.249.
Under “normalised enrichment score”, `HSIKRNLLNEFDR [P1H]` is recorded as 1.34.

Series 3
Substance: PhoQ, residues 284 288 289 292 302 303 GLASVI
Method: Sort-seq
Refers to: YFP reporter
Medium: E. coli
Setting: PhoQ-PhoP variant library
With: 10 µM Mg2+
Relative to: high Mg2+ state
Reading: higher = stronger signaling
For PhoP, residues 12 14 15 18 19 NYFRM (Escherichia coli, UniProt P23836): fold induction read 9.23.
The fold induction was 2.82 (PhoP, residues 12 14 15 18 19 QYFSL (Escherichia coli, UniProt P23836)).
It gave 6.61 for fold induction (PhoP, residues 12 14 15 18 19 TQALL (Escherichia coli, UniProt P23836)).

Series 4
Target: Histone acetyltransferase KAT6A, winged helix 2, GST fusion (KAT6A, Homo sapiens, UniProt Q92794, residues 85-181)
Method: protein binding microarray
Molecule type: double-stranded DNA, one strand shown
Medium: in vitro
Tested at: not given
Setting: 8-mer, flanks averaged, mean of 2 arrays, mostly near background
Relative to: not given
Reading: higher = stronger binding
Construct (chain): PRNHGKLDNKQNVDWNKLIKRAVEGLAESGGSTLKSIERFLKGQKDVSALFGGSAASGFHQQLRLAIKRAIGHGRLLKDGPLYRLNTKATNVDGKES
For `CCGTGCCC`, the E-score was 0.025.
The E-score of `GCGAAACC` is reported as 0.118.
The E-score of `CTGTGAGC` is reported as 0.103.
The E-score of `TCAACCCA` is reported as 0.004.
With `AAATAGCC` the E-score was -0.194.
`CAAGACCG` gave an E-score of -0.0427.
For `AGTCATCC`, the E-score was -0.189.
`AACGCGCT` has an E-score of 0.00942.
`ATTGGAAC` has an E-score of 0.0205.
`GGACACAC` has an E-score of 0.0243.
For `TAGGTCAA`, the E-score was -0.0411.
The E-score of `GCGAGATA` is reported as 0.0736.
`ACGCAATG` has an E-score of 0.0331.
The E-score of `CTGGTATC` is reported as 0.00421.

For quick reference, copied from above (series 4):
For `AGTCATCC`, the E-score was -0.189.
The E-score of `GCGAGATA` is reported as 0.0736.
`CAAGACCG` gave an E-score of -0.0427.
With `AAATAGCC` the E-score was -0.194.
